Experimental data collected from several papers.
Every numbered part comes from another study and shows a few of its results, in no order.
Chain of UniProt Q00536 (whole entry, looked up): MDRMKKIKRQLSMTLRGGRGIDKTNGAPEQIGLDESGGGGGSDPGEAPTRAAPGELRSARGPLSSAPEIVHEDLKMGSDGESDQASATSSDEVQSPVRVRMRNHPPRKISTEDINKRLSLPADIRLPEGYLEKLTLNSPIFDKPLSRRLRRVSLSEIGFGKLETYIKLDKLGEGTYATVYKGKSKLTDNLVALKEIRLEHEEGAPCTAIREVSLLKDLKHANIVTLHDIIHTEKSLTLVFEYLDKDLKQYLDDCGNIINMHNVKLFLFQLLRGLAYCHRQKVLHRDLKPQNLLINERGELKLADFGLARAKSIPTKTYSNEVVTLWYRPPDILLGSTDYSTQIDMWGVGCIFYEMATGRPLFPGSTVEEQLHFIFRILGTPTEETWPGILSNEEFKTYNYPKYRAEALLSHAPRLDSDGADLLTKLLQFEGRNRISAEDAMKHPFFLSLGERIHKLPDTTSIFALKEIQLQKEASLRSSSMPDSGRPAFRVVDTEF
Chain of UniProt Q13153 (whole entry, looked up): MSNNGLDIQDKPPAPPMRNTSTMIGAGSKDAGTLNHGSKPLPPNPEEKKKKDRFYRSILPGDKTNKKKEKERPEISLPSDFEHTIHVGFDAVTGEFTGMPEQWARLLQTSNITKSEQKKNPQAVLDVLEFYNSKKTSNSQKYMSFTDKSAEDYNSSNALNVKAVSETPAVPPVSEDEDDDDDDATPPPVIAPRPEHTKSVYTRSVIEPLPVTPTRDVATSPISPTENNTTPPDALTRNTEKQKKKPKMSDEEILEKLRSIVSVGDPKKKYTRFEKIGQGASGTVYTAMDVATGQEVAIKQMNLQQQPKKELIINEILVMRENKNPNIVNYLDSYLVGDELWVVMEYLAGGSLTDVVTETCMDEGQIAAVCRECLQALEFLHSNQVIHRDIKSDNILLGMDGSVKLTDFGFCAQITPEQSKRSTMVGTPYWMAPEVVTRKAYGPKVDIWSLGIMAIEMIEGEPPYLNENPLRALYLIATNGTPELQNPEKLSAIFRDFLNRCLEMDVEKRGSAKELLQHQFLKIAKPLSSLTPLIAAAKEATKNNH
Chain of UniProt Q9HBY8 (whole entry, looked up): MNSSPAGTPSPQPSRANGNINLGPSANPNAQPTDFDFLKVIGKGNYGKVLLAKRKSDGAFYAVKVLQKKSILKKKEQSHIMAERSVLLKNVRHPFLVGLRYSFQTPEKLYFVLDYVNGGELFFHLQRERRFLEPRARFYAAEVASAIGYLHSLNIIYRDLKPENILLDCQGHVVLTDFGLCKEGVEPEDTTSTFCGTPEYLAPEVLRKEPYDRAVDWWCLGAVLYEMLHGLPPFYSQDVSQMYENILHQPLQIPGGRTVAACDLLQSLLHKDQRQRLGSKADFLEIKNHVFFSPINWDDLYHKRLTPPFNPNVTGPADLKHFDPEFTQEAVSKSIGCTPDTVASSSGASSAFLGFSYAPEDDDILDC
Chain of UniProt P42680 (whole entry, looked up): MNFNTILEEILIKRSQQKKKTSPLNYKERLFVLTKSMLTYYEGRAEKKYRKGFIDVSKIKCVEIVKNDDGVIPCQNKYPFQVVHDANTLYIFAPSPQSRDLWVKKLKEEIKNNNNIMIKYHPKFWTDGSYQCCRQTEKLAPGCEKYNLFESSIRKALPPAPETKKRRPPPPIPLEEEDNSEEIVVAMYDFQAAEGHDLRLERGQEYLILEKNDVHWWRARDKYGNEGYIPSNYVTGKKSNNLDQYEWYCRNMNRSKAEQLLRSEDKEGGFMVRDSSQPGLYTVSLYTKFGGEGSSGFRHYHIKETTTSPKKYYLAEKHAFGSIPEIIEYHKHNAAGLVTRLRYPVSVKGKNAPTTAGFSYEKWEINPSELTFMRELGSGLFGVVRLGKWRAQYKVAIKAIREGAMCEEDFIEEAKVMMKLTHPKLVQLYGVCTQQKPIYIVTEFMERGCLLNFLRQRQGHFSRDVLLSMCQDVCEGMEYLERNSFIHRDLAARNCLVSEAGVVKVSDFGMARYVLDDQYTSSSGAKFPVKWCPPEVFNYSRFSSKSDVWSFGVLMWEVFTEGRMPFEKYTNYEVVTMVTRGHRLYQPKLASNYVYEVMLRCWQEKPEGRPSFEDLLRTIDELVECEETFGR
Chain of UniProt Q06418 (whole entry, looked up): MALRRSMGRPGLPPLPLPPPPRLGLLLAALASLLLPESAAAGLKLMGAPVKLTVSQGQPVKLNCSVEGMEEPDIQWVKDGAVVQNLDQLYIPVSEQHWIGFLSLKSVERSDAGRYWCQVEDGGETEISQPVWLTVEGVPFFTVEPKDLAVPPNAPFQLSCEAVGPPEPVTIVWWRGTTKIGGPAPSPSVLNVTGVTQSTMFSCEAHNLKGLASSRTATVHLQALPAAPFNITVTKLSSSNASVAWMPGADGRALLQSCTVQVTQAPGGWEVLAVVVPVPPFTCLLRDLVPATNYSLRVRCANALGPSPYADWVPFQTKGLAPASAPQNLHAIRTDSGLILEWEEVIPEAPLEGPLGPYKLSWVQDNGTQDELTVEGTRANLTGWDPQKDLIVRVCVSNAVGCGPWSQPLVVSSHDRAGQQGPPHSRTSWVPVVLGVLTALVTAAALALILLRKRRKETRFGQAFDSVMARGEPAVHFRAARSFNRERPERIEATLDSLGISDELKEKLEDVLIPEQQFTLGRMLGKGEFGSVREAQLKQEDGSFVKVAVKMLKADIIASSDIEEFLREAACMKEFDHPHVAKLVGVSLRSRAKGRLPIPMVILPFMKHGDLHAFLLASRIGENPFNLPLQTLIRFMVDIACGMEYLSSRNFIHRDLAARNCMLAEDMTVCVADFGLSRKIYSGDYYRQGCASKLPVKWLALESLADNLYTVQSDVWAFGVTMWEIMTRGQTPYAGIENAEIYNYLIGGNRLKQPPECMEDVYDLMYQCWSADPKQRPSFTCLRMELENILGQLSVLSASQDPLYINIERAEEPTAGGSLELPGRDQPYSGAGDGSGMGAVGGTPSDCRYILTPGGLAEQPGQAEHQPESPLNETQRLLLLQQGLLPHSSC
Chain of UniProt P08069 (whole entry, looked up): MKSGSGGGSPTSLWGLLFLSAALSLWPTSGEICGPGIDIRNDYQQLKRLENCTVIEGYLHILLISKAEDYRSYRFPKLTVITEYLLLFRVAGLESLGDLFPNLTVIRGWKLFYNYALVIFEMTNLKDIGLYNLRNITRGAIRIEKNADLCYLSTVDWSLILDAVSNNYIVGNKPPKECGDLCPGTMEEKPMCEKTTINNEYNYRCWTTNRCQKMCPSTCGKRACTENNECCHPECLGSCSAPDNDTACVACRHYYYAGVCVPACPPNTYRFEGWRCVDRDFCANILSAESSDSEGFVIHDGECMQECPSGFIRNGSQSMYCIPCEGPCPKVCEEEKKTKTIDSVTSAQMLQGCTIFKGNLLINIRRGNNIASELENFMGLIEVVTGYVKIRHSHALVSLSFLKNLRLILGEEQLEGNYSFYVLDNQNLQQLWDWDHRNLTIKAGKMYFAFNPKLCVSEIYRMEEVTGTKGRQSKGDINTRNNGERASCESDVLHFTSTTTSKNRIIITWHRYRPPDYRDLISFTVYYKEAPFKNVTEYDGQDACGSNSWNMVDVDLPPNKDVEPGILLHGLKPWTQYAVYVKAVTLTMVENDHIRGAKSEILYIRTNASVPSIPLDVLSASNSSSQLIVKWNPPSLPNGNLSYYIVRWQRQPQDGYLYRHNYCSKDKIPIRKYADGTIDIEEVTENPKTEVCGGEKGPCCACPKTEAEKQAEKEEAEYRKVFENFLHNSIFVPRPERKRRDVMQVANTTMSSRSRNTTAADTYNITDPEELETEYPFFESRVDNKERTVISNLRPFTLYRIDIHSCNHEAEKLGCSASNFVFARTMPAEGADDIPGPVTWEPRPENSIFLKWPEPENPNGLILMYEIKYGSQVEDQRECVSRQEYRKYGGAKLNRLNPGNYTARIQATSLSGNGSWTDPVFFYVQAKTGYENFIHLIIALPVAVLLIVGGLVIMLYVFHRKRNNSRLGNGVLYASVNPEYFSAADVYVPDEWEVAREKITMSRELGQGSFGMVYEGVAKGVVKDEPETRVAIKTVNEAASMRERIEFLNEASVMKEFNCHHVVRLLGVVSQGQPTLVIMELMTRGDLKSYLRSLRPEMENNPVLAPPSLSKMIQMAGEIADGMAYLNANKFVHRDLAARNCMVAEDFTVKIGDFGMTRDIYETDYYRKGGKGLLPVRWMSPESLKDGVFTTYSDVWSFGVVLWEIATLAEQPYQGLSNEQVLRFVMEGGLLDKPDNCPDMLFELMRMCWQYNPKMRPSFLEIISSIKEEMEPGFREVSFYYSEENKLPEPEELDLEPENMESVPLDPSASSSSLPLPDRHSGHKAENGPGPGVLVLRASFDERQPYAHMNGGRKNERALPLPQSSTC
Chain of UniProt P32298 (whole entry, looked up): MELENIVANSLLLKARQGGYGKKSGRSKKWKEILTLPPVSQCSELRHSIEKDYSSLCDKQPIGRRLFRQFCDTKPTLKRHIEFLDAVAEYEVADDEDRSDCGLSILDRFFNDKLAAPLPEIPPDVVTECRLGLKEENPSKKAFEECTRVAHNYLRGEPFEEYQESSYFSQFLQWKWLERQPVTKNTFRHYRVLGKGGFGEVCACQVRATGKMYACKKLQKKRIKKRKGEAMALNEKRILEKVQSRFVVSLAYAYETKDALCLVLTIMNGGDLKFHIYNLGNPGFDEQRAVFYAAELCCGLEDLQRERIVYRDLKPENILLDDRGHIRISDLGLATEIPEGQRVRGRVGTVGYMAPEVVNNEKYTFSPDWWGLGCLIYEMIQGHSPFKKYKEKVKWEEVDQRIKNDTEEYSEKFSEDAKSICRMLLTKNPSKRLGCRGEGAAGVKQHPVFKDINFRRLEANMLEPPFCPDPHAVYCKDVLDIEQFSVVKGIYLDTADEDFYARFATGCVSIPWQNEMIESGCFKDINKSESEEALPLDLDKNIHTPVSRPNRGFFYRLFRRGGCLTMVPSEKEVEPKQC

Study 1 — method: RNA Bind-n-Seq; form: RNA; sample: in vitro; tested at: 200 nM; setting: whole 134-nt RNA, ends assumed; together with: 150 mM KCl; baseline: input library; direction: higher = stronger binding
Target: Fragile X messenger ribonucleoprotein 1, C-terminal low-complexity region (Fmr1, Mus musculus, UniProt P35922)
Oligonucleotide | log2 enrichment
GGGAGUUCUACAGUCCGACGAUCAGUCCUGUGCUACACAUCGUAUGUACCGAAUCGGGCCCCGGGGCCCCGGGGCCCCGGAAAGUAUUAUGUUACGCCGUUCGGAUCUGCACUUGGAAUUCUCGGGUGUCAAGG | -0.0567
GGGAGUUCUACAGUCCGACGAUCGCAGGAAGUAAAAACAAAUGGAAAUGCUUCGGAUAGUGGCAGGGGUGGGGGUUGGUAAGGAAAGGGUGGGAUGGGAGUGGGUAAAGAGUUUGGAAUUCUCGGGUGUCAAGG | 0.17
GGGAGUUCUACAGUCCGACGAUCUCCUGUGCUACACAUCGUAUGUACCGAAUCGGGCCCCCCGGCCCCCCGGCCCCCCGGGGAAAGUAUUAUGUUACGCCGUUCGGAUCUGCAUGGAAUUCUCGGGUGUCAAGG | -0.0254
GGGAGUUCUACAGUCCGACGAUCUGGCCCUGGUGGCAUGCGGGGAGGAAGAGGUGGCCUCAUGGAUCGUGGUGGUCCCGGUGGAAUGUUUAGAGGUGGCCGUGGUGGAGACAGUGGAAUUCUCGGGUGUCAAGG | 0.178
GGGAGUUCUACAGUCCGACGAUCCCCAUUCCAAGAUUUGCUGUUGGCAUUGUAAUAGGAAGAAAUGGAGAGAUGAUCAAAAAAAUACAAAAUGAUGCUGGUGUUCGCAUUCAGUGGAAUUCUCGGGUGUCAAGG | -0.41
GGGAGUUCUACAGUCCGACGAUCCUGUGCUACACAUCGUAUGUACCGAAUCGGUUUUUUUGGGGUUUUUUUGGGGUUUUUUUGGAAAGUAUUAUGUUACGCCGUUCGGAUCUGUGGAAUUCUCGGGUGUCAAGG | -0.784
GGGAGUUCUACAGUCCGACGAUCGUCCUGUGCUACACAUCGUAUGUACCGAAUCGGGAAAAAGGGAAAAAGGGGAAAAAGGAAAGUAUUAUGUUACGCCGUUCGGAUCUGCACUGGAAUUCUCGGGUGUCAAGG | -0.175
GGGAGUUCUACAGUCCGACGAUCAGUCCUGUGCUACACAUCGUAUGUACCGAAUCGGUUUGGUUUUUUUGGUUUUUUUGGAAAGUAUUAUGUUACGCCGUUCGGAUCUGCACUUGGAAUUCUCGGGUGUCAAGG | -0.814

Study 2 — method: protein-binding microarray; form: double-stranded DNA, one strand shown; sample: in vitro; tested at: 2540 nM top; setting: 60-bp whole probe; together with: salmon DNA 0.4 mg/ml; baseline: random background probes; direction: higher = stronger binding; shared flanks, not repeated: GCCTAGCAC … GTCTTGATTCGCTTGACGCTGCTG
Target: Interferon regulatory factor 3, full length, phosphomimetic (IRF3, Homo sapiens, UniProt Q14653, residues 1-427, S386D/S396D/S398D/S402D/T404D/S405D)
Construct (chain): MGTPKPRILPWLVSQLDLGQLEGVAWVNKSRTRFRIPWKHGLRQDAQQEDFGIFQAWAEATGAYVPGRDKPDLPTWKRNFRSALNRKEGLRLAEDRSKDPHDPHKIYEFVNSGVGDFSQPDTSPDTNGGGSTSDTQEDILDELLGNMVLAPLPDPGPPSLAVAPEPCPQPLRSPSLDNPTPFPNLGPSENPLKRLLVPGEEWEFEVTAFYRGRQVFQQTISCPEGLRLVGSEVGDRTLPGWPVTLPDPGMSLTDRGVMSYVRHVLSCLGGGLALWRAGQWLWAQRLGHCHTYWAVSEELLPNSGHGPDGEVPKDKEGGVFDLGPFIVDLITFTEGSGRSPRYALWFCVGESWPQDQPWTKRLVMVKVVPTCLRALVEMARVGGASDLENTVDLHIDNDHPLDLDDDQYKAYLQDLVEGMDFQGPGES
Oligonucleotide | fitted relative affinity [z-score]
TTACATTTCGGGACTGGATTAGTGCTA | 1.32
GACGGACTGCAACTGCTGACGTGCTAG | -0.572
TTTTCATTTTTTTTCATCATGTGCTAG | 3.73
GTCGATCTCAGACTGGAGACGTGCTAG | 0.988
TCATATTTTTTTGTAATACTGTGCTAG | 0.565
TTAGAATTGGGGTTTCGATTAGTGCTA | 1.38
TCAGCTCTGGCACCTCTAACTGTGCTA | -0.643
GACGGGTCCCTTTTCCTGACGTGCTAG | 3.17

Study 3 — observed: enzyme activity; mode: inhibitor; tested at: 0.5 µM; baseline: control
Structure (SMILES): O=C1Cc2c([nH]c3ccc([N+](=O)[O-])cc23)-c2ccccc2N1
target | remaining activity [%]
Serine/threonine-protein kinase Sgk2 (SGK2, Homo sapiens, UniProt Q9HBY8) | 111
Calcium/calmodulin-dependent protein kinase type 1 (CAMK1, Homo sapiens, UniProt Q14012) | 94.8
Protein kinase C zeta type (PRKCZ, Homo sapiens, UniProt Q05513) | 109
Muscle, skeletal receptor tyrosine-protein kinase (MUSK, Homo sapiens, UniProt O15146) | 68.5
Casein kinase I isoform epsilon (CSNK1E, Homo sapiens, UniProt P49674) | 95.9
Tyrosine-protein kinase Tec (TEC, Homo sapiens, UniProt P42680) | 137
Tyrosine-protein kinase receptor TYRO3 (TYRO3, Homo sapiens, UniProt Q06418) | 96.7
Tyrosine-protein kinase JAK1 (JAK1, Homo sapiens, UniProt P23458) | 97.8
Insulin-like growth factor 1 receptor (IGF1R, Homo sapiens, UniProt P08069) | 93
Serine/threonine-protein kinase PAK 6 (PAK6, Homo sapiens, UniProt Q9NQU5) | 101
SRSF protein kinase 1 (SRPK1, Homo sapiens, UniProt Q96SB4) | 100
Serine/threonine-protein kinase SIK2 (SIK2, Homo sapiens, UniProt Q9H0K1) | 56.5
Serine/threonine-protein kinase PAK 1 (PAK1, Homo sapiens, UniProt Q13153) | 36.7
Vascular endothelial growth factor receptor 1 (FLT1, Homo sapiens, UniProt P17948) | 98.2

Study 4 — observed: cell-free assay; method: competition with immobilised ligand; tested at: 1 µM
Compound: O=C(Nc1cnc(Oc2ccc(F)cc2)nc1)N1CCc2ncccc2[C@@H]1c1ccc(F)cc1
target | remaining binding [%]
Testis-specific serine/threonine-protein kinase 1 (TSSK1B, Homo sapiens, UniProt Q9BXA7) | 100
Serine/threonine-protein kinase tousled-like 1 (TLK1, Homo sapiens, UniProt Q9UKI8) | 90
G protein-coupled receptor kinase 4 (GRK4, Homo sapiens, UniProt P32298) | 67
Phosphatidylinositol 4,5-bisphosphate 3-kinase catalytic subunit alpha isoform (PIK3CA, Homo sapiens, UniProt P42336) | 100
Epidermal growth factor receptor (EGFR, Homo sapiens, UniProt P00533) | 100
Cyclin-dependent kinase 16 (CDK16, Homo sapiens, UniProt Q00536) | 75
Mitogen-activated protein kinase kinase kinase kinase 4 (MAP4K4, Homo sapiens, UniProt O95819) | 86
Fibroblast growth factor receptor 3 (FGFR3, Homo sapiens, UniProt P22607, G697C) | 89

Some of these lines once more (study 3):
target | remaining activity [%]
Casein kinase I isoform epsilon (CSNK1E, Homo sapiens, UniProt P49674) | 95.9
Muscle, skeletal receptor tyrosine-protein kinase (MUSK, Homo sapiens, UniProt O15146) | 68.5
